Measured values collected from several papers.
Every numbered part comes from another study and shows a few of its results, in no order.

Series 1
Target: Interferon regulatory factor 7, full length, phosphomimetic (IRF7, Homo sapiens, UniProt Q92985, residues 1-503, S471D/S472D/S475D/S476D/S477D/S483D/S484D/S487D)
Sequence of UniProt Q92985 (whole entry, unmodified, looked up): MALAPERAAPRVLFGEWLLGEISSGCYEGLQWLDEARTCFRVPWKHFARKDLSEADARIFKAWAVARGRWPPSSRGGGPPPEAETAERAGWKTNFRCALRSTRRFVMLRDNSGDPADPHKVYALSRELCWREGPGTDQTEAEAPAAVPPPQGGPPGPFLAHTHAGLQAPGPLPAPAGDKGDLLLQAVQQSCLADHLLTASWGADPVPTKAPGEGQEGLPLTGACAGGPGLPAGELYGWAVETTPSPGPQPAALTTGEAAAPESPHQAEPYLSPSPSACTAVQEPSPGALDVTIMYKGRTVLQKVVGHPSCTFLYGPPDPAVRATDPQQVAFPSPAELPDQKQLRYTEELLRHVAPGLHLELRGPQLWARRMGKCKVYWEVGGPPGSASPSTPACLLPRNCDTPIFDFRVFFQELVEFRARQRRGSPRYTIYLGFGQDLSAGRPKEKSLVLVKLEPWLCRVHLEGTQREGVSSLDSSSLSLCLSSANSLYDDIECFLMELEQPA
Technique: protein-binding microarray
Form: double-stranded DNA, one strand shown
Matrix: in vitro
Concentration: 2200 nM top
Setting: 60-bp whole probe
With: salmon DNA 0.4 mg/ml
Relative to: random background probes
Direction: higher = stronger binding
Shared flanks, not repeated: GCCTAGCAC … GTCTTGATTCGCTTGACGCTGCTG
Strand | fitted relative affinity [z-score]
GACGATAACAGTTTCGAGACGTGCTAG | 2.96
GACGATTTCAGACTGGTGACGTGCTAG | 0.508
GACGATATCTGGTTTCGAGACGTGCTA | 2.8
GAAGATCTCAGTCTCGAGACGTGCTAG | -0.149
TTAGGTTTCGGGACCGGGTTAGTGCTA | 2.98
TTAGGCCTGGGTTTCGGTTAGTGCTAG | 3.74
GAGGGTATCCTACTGCTGACGTGCTAG | -0.246
TTAGGTCTCCTGTTCCTTTAGTGCTAG | 1.11
CCTTGCATGTTTTTGACAAAGTGCTAG | 0.778
TGTTATTAAATTTTCACGGTGTGCTAG | 0.513
GGGATGGTGGGGCTCCTCCTGTGCTAG | -0.915
GTTAGTGGGATGGCTGTGGTGTGCTAG | -0.777
GTCACTCTCTGGGCTGTGGGTGTGCTA | 0.203
TCACTTATCCTATCAGTACTGTGCTAG | 1.8
TTAGATCTCAGTTTCGATTGGTGCTAG | 7.97
GACGATATCGCGTATCGAGACGTGCTA | 0.537

Series 2
Target: Sal-like protein 4, full length isoform A (SALL4, Homo sapiens, UniProt Q9UJQ4, residues 1-1053)
Sequence of UniProt Q9UJQ4 (whole entry, looked up): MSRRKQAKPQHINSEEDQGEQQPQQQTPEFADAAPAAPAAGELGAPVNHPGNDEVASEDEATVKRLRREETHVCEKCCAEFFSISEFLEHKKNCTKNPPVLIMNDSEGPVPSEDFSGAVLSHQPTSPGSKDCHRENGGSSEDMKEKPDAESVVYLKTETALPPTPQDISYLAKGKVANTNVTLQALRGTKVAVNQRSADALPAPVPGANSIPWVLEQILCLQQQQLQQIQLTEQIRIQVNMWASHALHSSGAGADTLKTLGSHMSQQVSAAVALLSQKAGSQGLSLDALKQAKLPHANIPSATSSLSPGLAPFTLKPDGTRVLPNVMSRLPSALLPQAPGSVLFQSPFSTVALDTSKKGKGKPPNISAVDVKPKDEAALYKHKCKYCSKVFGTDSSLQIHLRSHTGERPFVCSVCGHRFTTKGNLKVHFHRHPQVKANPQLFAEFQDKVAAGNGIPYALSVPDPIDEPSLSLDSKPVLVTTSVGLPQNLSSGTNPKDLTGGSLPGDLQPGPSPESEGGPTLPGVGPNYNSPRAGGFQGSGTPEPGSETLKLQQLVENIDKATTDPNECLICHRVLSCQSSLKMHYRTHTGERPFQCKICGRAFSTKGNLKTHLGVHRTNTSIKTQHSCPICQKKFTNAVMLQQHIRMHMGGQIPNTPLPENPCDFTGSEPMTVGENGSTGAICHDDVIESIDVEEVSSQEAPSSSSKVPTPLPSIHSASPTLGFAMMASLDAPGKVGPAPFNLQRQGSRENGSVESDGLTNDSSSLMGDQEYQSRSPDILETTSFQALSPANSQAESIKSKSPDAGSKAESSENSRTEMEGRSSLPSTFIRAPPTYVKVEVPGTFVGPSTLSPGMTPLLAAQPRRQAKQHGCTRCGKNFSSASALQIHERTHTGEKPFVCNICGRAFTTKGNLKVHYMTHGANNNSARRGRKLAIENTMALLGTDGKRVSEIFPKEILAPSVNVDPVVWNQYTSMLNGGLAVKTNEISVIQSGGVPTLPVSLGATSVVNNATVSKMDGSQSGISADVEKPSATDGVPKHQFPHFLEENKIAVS
Technique: universal PBM
Form: double-stranded DNA, one strand shown
Matrix: in vitro
Concentration: 600 nM
Setting: 8-mer, flanks averaged, mean of replicates
Direction: higher = stronger binding
Strand | E-score
ACAGCCAA | -0.029
ACCTTGCT | -0.111
CCGTCAAG | -0.212
TCGATAAA | 0.269
ACCTGTCA | -0.107
TCCGAGGA | -0.283
ATTACCCC | 0.0284
CAGCGTGC | -0.278
ATCATTCC | 0.0615
ATCCCGCC | -0.3
GCGCTGAC | -0.259
AGGCGCAT | -0.256
ACTTGACT | 0.0411
AGTACGTC | 0.0708
CGGTTGTA | -0.242
GGCCCGAA | -0.209
GGTGCTAC | -0.223

Series 3
Target: RNA binding protein fox-1 homolog 2, RRM domain, GST-SBP tag (RBFOX2, Homo sapiens, UniProt O43251-10, residues 100-194)
Technique: RNA Bind-n-Seq
Form: RNA
Matrix: in vitro
Concentration: 365 nM
Setting: natural RNA segment, single round, ends assumed
Relative to: no-protein control
Direction: higher = stronger binding
Target sequence (chain): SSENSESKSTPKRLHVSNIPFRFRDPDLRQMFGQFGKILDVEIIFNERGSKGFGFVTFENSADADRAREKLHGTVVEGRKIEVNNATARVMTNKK
Strand | RBNS enrichment (R)
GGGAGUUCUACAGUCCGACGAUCUUGCAUCUGUUACUACUUAGUUUCAUAGGCUUUAAUUCUAGUAUGCAUUAAAUAUUGGGCAAAAUUGCACUUGACUAAUUUUUUGAAGAAAAGUAAUUUAUUCUGUCAAGUGGAAUUCUCGGGUGCCAA | 0.5
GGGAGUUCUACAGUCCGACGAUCUAGUUAGAUUUCACCUGCAUAUACAUUUUUCCAUUUUAUGCUCUAUGAUCUGAACAAAAGCUUUUUGAAUUGUAUAAGAUUUAUGUCUACUGUAAACAUUGCUUAAUUUUUGGAAUUCUCGGGUGCCAA | 0.477
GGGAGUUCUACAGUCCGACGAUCUCCUGGGGCCCAUGCUUAGAGCCCAGGCUCCAGCCCUGAGUGCUUCCGAGCUGGCGGACUGCCCAGGGGCCAUCAGAGGAUGGUGGUGCUGCUGCUGAUCCGGGGACCGCUGGAAUUCUCGGGUGCCAA | 0.546
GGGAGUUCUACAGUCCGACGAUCUUAGUUAUGAAAUGUUCUUAAUAUGACGUGUUCAAUAACUUCACAUAAACUUCCUGUUCUCCAAAACCUCAAAGAGAUAGAGUUAAUGAGUUGUUGUUUUUUUUUAAAUGUGGAAUUCUCGGGUGCCAA | 0.352
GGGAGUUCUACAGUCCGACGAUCAAAUAAAUAUAUAUUUUAAGUUUAAAGACAAAUGAAACCAGACAAAACAAUCCCCAUCAGGUAGUUGUCCAACCCCCAGCUGGGUUCAACCCUCUCAUUACCCACCUGACUGGAAUUCUCGGGUGCCAA | 0.428
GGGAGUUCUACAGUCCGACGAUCGGCCACUUGAUGACCCCCAACCAAGUGGCUCCCACACCCUGUUUUACAAAAAAGAAAAGACCAGUCCAUGAGGGAGGUUUUUAAGGGUUUGUGGAAAAUGAAAAUUAGGAUGGAAUUCUCGGGUGCCAA | 0.564
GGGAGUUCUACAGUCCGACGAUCCCCCCAGACACCAUUCACCGACCCACUGCAGGCUGUCCUCCAACCAUGGGGUGGCCACUCCACCCGCAGCCAGACUCCCCGCUCCCCACUUUUCAUGCAGGCUGGCAUACUGGAAUUCUCGGGUGCCAA | 1.23
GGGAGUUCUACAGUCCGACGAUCUUAAGACUAUAAAGUACUACUGUAGGAUUGCAAUUUCCAUUCUUUUAAAUGGGUUAAAAAGAUGUUAAUAUAACAAUAUAUGAUAUAUAAACCUUAAGUGAAAUGAAAGAUGGAAUUCUCGGGUGCCAA | 0.565
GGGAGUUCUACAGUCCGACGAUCGGGAAAUACCUUUCCUGGGCUUGUUUUCUAGCAUAUCACUGACCUGGGAUCUUUGGGUGAUCAAGGGUGUGGUUAGUGGAGGCUCUGUGCUGCACGUAUGCAGUAUCCUAUGGAAUUCUCGGGUGCCAA | 0.324
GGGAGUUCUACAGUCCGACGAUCUAAUUACCUAGCUGUUGCUGGACACCAGCUGUGCAUACCUGAGCAUGCCCAGUGCAUGUUGGGUCCAUGCACAACUCCUGGACCCGAGCUUUCACCAAGCUCUGGCCUCCUGGAAUUCUCGGGUGCCAA | 0.239
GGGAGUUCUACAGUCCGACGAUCAAUCUAUAAAACAGGCCUGAGAAGAUAGUUCUGGUCUUGUUCUGACUGUGGUAACUAGCUGUGACCAAGAAGAGAAAAUGUUGUGUCUUGGGAAAUGAACUUGGAUCUCUUGGAAUUCUCGGGUGCCAA | 1.89
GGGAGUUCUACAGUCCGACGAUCUUUUCAUAUCAUGUGCUGUAAAGUUUUCCUAAAUGAGGCUUUAACGUAAACACUGGUGACAUAAACCAUUCAUUGCUACGUUGCUUAUUGUGUUUUUAUGCUGUUUUAUAUGGAAUUCUCGGGUGCCAA | 0.774

Series 4
Target: Transcription factor SOX-2, HMG box (SOX2, Homo sapiens, UniProt P48431, residues 19-118)
Sequence of UniProt P48431 (19-118, looked up): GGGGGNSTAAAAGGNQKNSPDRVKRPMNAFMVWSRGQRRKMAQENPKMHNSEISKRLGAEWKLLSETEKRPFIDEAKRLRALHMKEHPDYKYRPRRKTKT
Technique: protein-binding microarray
Form: double-stranded DNA, one strand shown
Matrix: in vitro
Concentration: not given
Setting: k-mer, scored over probes, only values ≥0.25
Direction: higher = stronger binding
Strand | E-score
AGTCAAT | 0.344
ATATTAA | 0.304
AATTTAG | 0.275
AATGCAA | 0.288
ATTCAGG | 0.304
AAAGACA | 0.26
CCATTCA | 0.435
TATAAAA | 0.328
TTATCAA | 0.261
ATAAATG | 0.327
AATATAA | 0.314
AATAGCA | 0.267
ATAAAAG | 0.265
ACTCAAT | 0.278
AATTGAC | 0.375
AATTGGC | 0.333

Series 5
Target: Histone acetyltransferase KAT6A, winged helix 1, GST fusion (KAT6A, Homo sapiens, UniProt Q92794, residues 1-85)
Technique: protein binding microarray
Form: double-stranded DNA, one strand shown
Matrix: in vitro
Concentration: not given
Setting: 8-mer, flanks averaged, mean of 2 arrays, mostly near background
Relative to: not given
Direction: higher = stronger binding
Construct (chain): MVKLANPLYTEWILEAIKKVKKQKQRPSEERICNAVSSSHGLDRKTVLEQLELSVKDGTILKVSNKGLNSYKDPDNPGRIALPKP
Strand | E-score
GCGGGCAA | 0.228
CCATGACC | -0.0283
GAGCGGAA | 0.179
GAAAGACC | 0.026
ATACTTAA | -0.0693
GCTTGCGA | 0.0657
ATCTCGTC | -0.127
AGAGTTTA | -0.295
ACTGATTC | -0.0952
CAGACCCA | -0.145
CTAATAGC | 0.0284
CACTAGGC | 0.0365
CCCGATCC | -0.0338
AGGACAAG | -0.139
AATAAAAT | -0.17
ATTAATAC | -0.0466

Series 6
Target: Prothrombin, mature alpha-thrombin (F2, Homo sapiens, UniProt P00734)
Technique: aptamer microarray, sandwich
Form: DNA with 2'F-ANA
Matrix: in vitro
Concentration: 200 nM
Setting: whole 15-mer aptamer, many near background
With: Cy3 exosite-II aptamer, 400 nM
Direction: higher = stronger binding
Strand: GGTTGGTGTGGTTGG
Modification | mean fluorescence intensity
2'F-ANA at 1 2 7 9 10 11 12 13 14 | 50.7 a.u.
2'F-ANA at 5 7 9 14 | 46.2 a.u.
2'F-ANA at 3 7 9 10 11 14 15 | 400 a.u.
2'F-ANA at 1 3 5 6 7 9 10 12 15 | 85.4 a.u.
2'F-ANA at 3 4 8 10 12 14 15 | 204 a.u.
2'F-ANA at 1 2 4 7 11 14 15 | 52.9 a.u.
2'F-ANA at 4 8 9 11 13 14 | 81.9 a.u.
2'F-ANA at 3 5 6 7 9 10 11 15 | 57.3 a.u.
2'F-ANA at 1 2 3 4 5 7 8 9 12 14 | 58.9 a.u.
2'F-ANA at 1 2 3 5 10 11 12 13 15 | 71.1 a.u.
2'F-ANA at 1 2 4 5 8 9 11 12 14 15 | 48.4 a.u.
2'F-ANA at 1 2 4 5 6 8 14 15 | 51.5 a.u.
2'F-ANA at 3 8 12 13 | 1350 a.u.
2'F-ANA at 1 2 4 5 6 11 12 14 15 | 54.1 a.u.
2'F-ANA at 11 13 14 15 | 176 a.u.
2'F-ANA at 3 4 5 6 8 11 12 | 198 a.u.
2'F-ANA at 2 3 4 6 11 15 | 486 a.u.
2'F-ANA at 1 2 3 6 7 8 9 10 11 12 14 15 | 63.1 a.u.
2'F-ANA at 1 2 3 6 7 8 9 10 | 136 a.u.
2'F-ANA at 1 3 4 8 9 10 13 14 15 | 75.6 a.u.
2'F-ANA at 1 2 5 10 13 | 44.6 a.u.
2'F-ANA at 1 2 3 5 7 8 11 13 15 | 54.4 a.u.
2'F-ANA at 1 2 6 9 10 12 13 | 56.9 a.u.
2'F-ANA at 1 2 3 4 6 7 8 9 10 12 | 69.6 a.u.
2'F-ANA at 6 7 11 12 14 | 196 a.u.

A few entries again (series 2):
Strand | E-score
ATCATTCC | 0.0615
GGCCCGAA | -0.209
ATTACCCC | 0.0284
ACCTGTCA | -0.107
CAGCGTGC | -0.278
GCGCTGAC | -0.259
TCCGAGGA | -0.283
ACAGCCAA | -0.029
